# Assay results gathered from unrelated publications.
# Numbered parts are unrelated; each lists some results of a single study. Substitutions count along the parent as printed.

# Series 1
# Target: Prothrombin, mature alpha-thrombin (F2, Homo sapiens, UniProt P00734)
# Method: aptamer microarray, sandwich
# Molecule type: DNA with 2'F-ANA
# Sample: in vitro
# Concentration: 200 nM
# Notes: whole 15-mer aptamer, many near background
# Together with: Cy3 exosite-II aptamer, 400 nM
# Direction: higher = stronger binding
# Strand: GGTTGGTGTGGTTGG
Modification,mean fluorescence intensity
2'F-ANA at 2 12 14,202 a.u.
2'F-ANA at 3 4 5 9 10 13,48.3 a.u.
2'F-ANA at 5 8 12 14 15,50.3 a.u.
2'F-ANA at 5 6 8 11 12 13 15,94.3 a.u.
2'F-ANA at 1 2 6 7 8 9 10 11 12 13 15,64.8 a.u.
2'F-ANA at 1 2 4 11 13,78.5 a.u.
2'F-ANA at 1 2 6 7 8 11 12 14,80.3 a.u.
2'F-ANA at 3 5 7 8 9 10 11 12 13 14,56.4 a.u.
2'F-ANA at 1 4 5 6 10 11 15,51.9 a.u.
2'F-ANA at 2 3 4 6 8 10 11 13 15,162 a.u.
2'F-ANA at 1 3 4 7 10 12 13 14,52.7 a.u.
2'F-ANA at 2 4 5 7 8 10 11 12 14,48.1 a.u.
2'F-ANA at 1 6 7 9 11 13 14,51 a.u.
2'F-ANA at 2 4 6 8 9 10 12 14,113 a.u.
2'F-ANA at 1 6 10 11 14,69.3 a.u.
2'F-ANA at 1 6 7 9 12 13,229 a.u.
2'F-ANA at 1 2 5 6 7 8 10 12 13,55.3 a.u.
2'F-ANA at 1 2 4 5 6 7 9 12 13 15,63.4 a.u.
2'F-ANA at 2 3 4 8 9 11 12 13 14,245 a.u.
2'F-ANA at 1 3 4 5 6 7 8 9 10 13 14,59.3 a.u.

# Series 2
# Target: Interferon regulatory factor 3, full length, phosphomimetic (IRF3, Homo sapiens, UniProt Q14653, residues 1-427, S386D/S396D/S398D/S402D/T404D/S405D)
# Method: protein-binding microarray
# Molecule type: double-stranded DNA, one strand shown
# Sample: in vitro
# Concentration: 2540 nM top
# Notes: 60-bp whole probe
# Together with: salmon DNA 0.4 mg/ml
# Reference: random background probes
# Direction: higher = stronger binding
# All sequences stand within: GCCTAGCAC … GTCTTGATTCGCTTGACGCTGCTG
# Target sequence (chain): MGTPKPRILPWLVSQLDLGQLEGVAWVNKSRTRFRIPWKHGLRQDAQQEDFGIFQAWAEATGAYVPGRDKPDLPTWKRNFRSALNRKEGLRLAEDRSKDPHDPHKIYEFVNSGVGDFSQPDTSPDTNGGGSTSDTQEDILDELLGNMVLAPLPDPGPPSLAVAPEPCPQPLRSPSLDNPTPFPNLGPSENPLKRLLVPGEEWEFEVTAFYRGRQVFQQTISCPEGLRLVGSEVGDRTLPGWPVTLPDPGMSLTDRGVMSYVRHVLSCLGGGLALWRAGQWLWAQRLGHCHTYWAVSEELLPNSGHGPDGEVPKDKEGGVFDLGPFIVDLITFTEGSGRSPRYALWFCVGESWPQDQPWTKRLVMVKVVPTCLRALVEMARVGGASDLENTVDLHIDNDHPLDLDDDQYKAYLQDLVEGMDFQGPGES
Strand,fitted relative affinity
GACGATATCAGACTGGGGACGTGCTAG,0.174 z-score
TTAGGTTTCGACTATCGCTTAGTGCTA,2.24 z-score
TTAGATCTCGGGACTGGATTAGTGCTA,-0.497 z-score
ACTTTTTTCTGATTGAATCTGTGCTAG,1.94 z-score
TCACCTCTCACCTCGGCACTGTGCTAG,0.557 z-score
TTAGATTTCCTTATCCTTTAGTGCTAG,4.67 z-score
TCAACCTTGAACTTCGGACTGTGCTAG,-0.372 z-score
GACGGTTCAGGTTTCGGGACGTGCTAG,2.65 z-score
CGCCCACTCATGCCTCTTAAGGTGCTA,-0.142 z-score
GACGGTTCCGGTTTCGGGACGTGCTAG,6.1 z-score
TTAGGTCTCGGACTTGGTTAGTGCTAG,0.0265 z-score
TTAGATCTGAGACTGGATTAGTGCTAG,-0.415 z-score
GACGATATCAGTCTTGAGACGTGCTAG,1.12 z-score
TTAGGTATCCTTCTTCTTTAGTGCTAG,7.32 z-score
TTAGGTTACGACACTGGGTTAGTGCTA,-0.255 z-score
ATAGAACTGAGACTGGATTAGTGCTAG,-0.165 z-score
GACGGTATCGACTCTGGGGACGTGCTA,0.877 z-score
GACGGTTTCGGGATTGGGGACGTGCTA,4.91 z-score
TCAATTGTGGGTCTTGCACTGTGCTAG,-0.609 z-score
TTAGCTTTCGGTATCGGTTAGTGCTAG,6.13 z-score
GGACTGTCAGCCACTTTTTGGTGCTAG,-0.421 z-score
TCACCTTTCACTTTAACACTGTGCTAG,3.6 z-score
TTAGGTTTCGGACAGGGTTAGTGCTAG,2.53 z-score
TTAGGTTTCCTTCTGCTTTAGTGCTAG,7.06 z-score
TTAGGTTTCCAACTGCTTTAGTGCTAG,4.58 z-score

# Series 3
# Target: CCNE2, cyclin fold, Cln2 fusion (human)
# Method: yeast growth competition, sequencing
# Sample: yeast
# Notes: weak parent motif
# Reference: not given
# Direction: higher = stronger binding
# Parent: CDC42EP1 docking peptide (human); SLVVGKLSFDSSP; partner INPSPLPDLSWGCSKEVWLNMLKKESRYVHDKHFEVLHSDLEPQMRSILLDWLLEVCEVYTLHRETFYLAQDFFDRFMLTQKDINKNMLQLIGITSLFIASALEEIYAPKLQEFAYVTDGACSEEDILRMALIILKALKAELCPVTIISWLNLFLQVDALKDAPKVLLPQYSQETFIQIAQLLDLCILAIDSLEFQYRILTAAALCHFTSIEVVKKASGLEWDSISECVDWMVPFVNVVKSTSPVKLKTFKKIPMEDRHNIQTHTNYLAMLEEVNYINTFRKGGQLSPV
Variant,normalised enrichment score
SLVVGKLAFDSSP [S8A],-0.155
SLAVGKLSFDSSP [V3A],-0.22
SLVVGKLSFDASP [S11A],-0.234
SLVVGALSFDSSP [K6A],-0.0478
SLVVGKLSFASSP [D10A],0.591
SLVVGKLSFDSSA [P13A],-0.0754
SLVVGKLSFDSAP [S12A],0.157

# Series 4
# Target: RNA binding protein fox-1 homolog 2, RRM domain, GST-SBP tag (RBFOX2, Homo sapiens, UniProt O43251-10, residues 100-194)
# Method: RNA Bind-n-Seq
# Molecule type: RNA
# Sample: in vitro
# Concentration: 365 nM
# Notes: natural RNA segment, single round, ends assumed
# Reference: no-protein control
# Direction: higher = stronger binding
# All sequences stand within: GGGAGUUCUACAGUCCGACGAUC … UGGAAUUCUCGGGUGCCAA
# Construct (chain): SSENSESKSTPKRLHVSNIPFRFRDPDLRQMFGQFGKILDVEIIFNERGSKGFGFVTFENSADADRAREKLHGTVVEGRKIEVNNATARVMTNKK
Strand,RBNS enrichment (R)
UUUGGACACUGGAGUUGAAAGUUACAGGCAAUCUGUUACACUUGGCUCUGAAUCCUAUGAAUCAAGGAAAUAACCCGUUCUCUGGAAGACACUGAAACAGGAGAGAGGGA,0.207
CUAAAAAUAAGGUUUAUUAAGCCAAGACCAGACUUUUGAGCAGGGCAGCACUGCCAGGCUGUCGUCAGUUUCACCAUGUGGCCUCUGUGCCCCUCCUCCGUAGUCCUCUC,0.254
UUCUGUCCUGGACAGCAUCAAAGAGGGCUUCUCCUUCCAGCCCAAGCUGCGUUCUCCCAGACGCCUUAACAGCAGUCCCCGCACCCCCAUCAGCCCCCUCAAGUUCUCUC,0.937
UGGCAGAGAGGUCCUGUGAGUCAUUUGAUGGACGAGUGCCUUUGACUGUGCUAGAUCUUCACUUCGGUGGCGAGUUAUAUCCUACAGCCCUGACACAUCAGGCAAUGAAU,0.301
GUGAAUGACAGGUACUGACAGCCCAACAUUAAGGUGCAAAUAGCCUGUUUGUCAUAUCAGAAGCCAUGGAAUAAUAAACCCAGGGGAAUCCAGAAACCACACUUAGUGGU,0.197
AUUUGUCUAUAUUUCCUACGGUGCAUCUAUAAAGAGUGCACACACCUAUGGGAAACCUAGGUUUCAUUAUAGCUGAAGUAGACACAUGAAUUAAAAACAUUACAAAUGAA,0.344
UACAAAUCUUUAAGUCAUUUUAACUUUUUUUUCUGCCUUACGAUAUAAAAAUAUUUAUCUUAGAAUUUGAGAUGUUCAUAGCAUGUUUUAUUACAUUGAAGAAACUAAAA,8.4
GAACUGGAGGUGCCUGUGCACACUGGACCCAACAGUCAAAAGACUGCUGACUUGACACGUGACAGUGAAGUAAUGGAAGUGGCCAGAUGUCAGGAAACUGAGAGUAAUGA,0.654
CAUUCUUAAAAUAUUAGAUACCAGGUAGUAUAUAUUGUUUCUGUACAAAAAUGACUGUAUUCUCUCACCAGUAGGACUUAAACUUUGUUUCUCCAGUGGCUUAGCUCCUG,0.496
AUUAAAGGCAUGUGCCACUAUGCAAGUUUAUGUGGUGCUGGGCACAGAACCCAGGGCUUAAUGCGUGGCAGCUAAGCACUCUAUCAACUGAGUUACAUCUCCAUCCUGUA,6.44
AACUAUGUGACAACACUUCUCCGCAUAAAGGUUAUGGUGCCCUAGGCAGUGACAUAUGGCCUCAGGCUGGACACCGAGACAGGUGGAAAUACCCUGUCCAUUGGUAGAUG,0.428
UUAUCUGUGAACUGCAGUGCUGUAUCAAAGCAGUCCAGUAACCUGCAGUACUGAGUAUGGUGCUUGCUCUUUCACUUAACUGAUAAGAGGGACAUGCCUACUAGGAGUUU,0.284

# Series 5
# Target: PABPC1L2, full length, GST fusion (mouse, UniProt A0ABA7IW68)
# Method: RNAcompete
# Molecule type: RNA
# Sample: in vitro
# Concentration: 20 nM
# Notes: 7-mer, probes averaged, single round
# Reference: mean of 7-mers
# Direction: higher = stronger binding
# Residues (chain): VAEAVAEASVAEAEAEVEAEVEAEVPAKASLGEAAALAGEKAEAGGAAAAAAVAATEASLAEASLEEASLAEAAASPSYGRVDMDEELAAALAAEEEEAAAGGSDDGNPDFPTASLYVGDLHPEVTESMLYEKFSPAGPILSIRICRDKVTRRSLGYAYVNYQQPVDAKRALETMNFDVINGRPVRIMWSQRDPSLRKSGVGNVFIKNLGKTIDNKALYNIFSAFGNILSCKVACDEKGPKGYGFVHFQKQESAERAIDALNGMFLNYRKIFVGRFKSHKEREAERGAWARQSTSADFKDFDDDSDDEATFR
Strand,7-mer Z-score
ACUAGUC,-0.325
CGUCUUC,-0.472
AAACUGU,1.04
GGCUGAG,0.43
UACUUGG,0.0841
AGGAAAA,3.42
GUUCAAU,-0.133
UUGCCAG,-0.277
UUUUUGU,-0.244
ACUCCUU,-0.289
CUUCACG,-0.315
GGCAGGA,0.584
CGUAACG,-0.17
GCUCCUG,-0.179
AUGACUA,-0.0192
CGCGAUA,-0.0446
UUAUCGC,-0.387

# Series 6
# Target: ABI1, truncated, D143A, DHFR fusion (Arabidopsis thaliana)
# Method: DHFR PCA, deep sequencing
# Sample: yeast
# Notes: methotrexate growth selection, single substitutions
# Together with: (+)-ABA 4.8 µM
# Reference: wild-type fitted maximum
# Direction: higher = stronger binding
# Parent: PYL1, truncated, DHFR fusion (Arabidopsis thaliana); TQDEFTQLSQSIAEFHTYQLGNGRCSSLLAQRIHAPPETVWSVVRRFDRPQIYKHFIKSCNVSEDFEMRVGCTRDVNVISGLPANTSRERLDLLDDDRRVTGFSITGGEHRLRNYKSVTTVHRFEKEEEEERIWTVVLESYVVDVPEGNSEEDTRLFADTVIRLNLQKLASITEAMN
Variant,relative binding score [%]
G148Y,-6.14
C72V,72.4
D75Y,72.8
S26H,64.5
I52K,52.3
T73R,42.7
G23E,35.6
L94V,4.81
Q51P,23.4
Q167N,71.3
E4G,54.1
F124R,13
N85V,75.8

# Mixed results
Substance,target,assay,system,conditions,scale,measurement,value
"PhoQ, residues 284 288 289 292 302 303 AGCYAI","PhoP, residues 12 14 15 18 19 AGCRL (Escherichia coli, UniProt P23836)","Sort-seq, item: YFP reporter",E. coli,"PhoQ-PhoP variant library, together with: 10 µM Mg2+","reference: high Mg2+ state, higher = stronger signaling",fold induction,9.7

# A few entries again (series 1):
Modification,mean fluorescence intensity
2'F-ANA at 5 6 8 11 12 13 15,94.3 a.u.
2'F-ANA at 1 2 6 7 8 9 10 11 12 13 15,64.8 a.u.
2'F-ANA at 1 2 4 11 13,78.5 a.u.
2'F-ANA at 1 2 6 7 8 11 12 14,80.3 a.u.
2'F-ANA at 3 5 7 8 9 10 11 12 13 14,56.4 a.u.
2'F-ANA at 1 4 5 6 10 11 15,51.9 a.u.
2'F-ANA at 2 3 4 6 8 10 11 13 15,162 a.u.
